Measurements from different studies.
Each line is one published result; not all experiments were run side by side. Several values in a cell are separate wells, animals, samples, runs or records. ± marks the error that the study gave.

CO[C@H]1CC[C@H](N2C(=O)CNc3ncc(-c4ccc(C(C)(C)O)nc4)nc32)CC1  p4EBP1 change from baseline (flow cytometry; stimulated T cells, human, blood; 45 mg single dose, 1.5 h, median; reference: baseline): -56.6%
CC(=O)NCC(=O)NCC(=O)N[C@H](C(=O)N[C@@H](Cc1ccc(O)cc1)C(=O)N[C@@H](CO)C(=O)N[C@H]1CSSC[C@@H](C(=O)N[C@@H](CCCNC(=N)N)C(=O)N2CCC[C@H]2C(=O)N[C@@H](CCC(N)=O)C(=O)N[C@@H](CCCNC(=N)N)C(=O)NCC(=O)NCCC(=O)N[C@@H](CCCCNC(=O)CN(CC(=O)NCCCC[C@H](NC(=O)CCNC(=O)CNC(=O)[C@H](CCCNC(=N)N)NC(=O)[C@H](CCC(N)=O)NC(=O)[C@@H]2CCCN2C(=O)[C@H](CCCNC(=N)N)NC(=O)[C@@H]2CSSC[C@H](NC(=O)[C@H](CO)NC(=O)[C@H](Cc3ccc(O)cc3)NC(=O)[C@@H](NC(=O)CNC(=O)CNC(C)=O)[C@@H](C)O)C(=O)N[C@@H](Cc3c[nH]cn3)C(=O)N[C@@H](Cc3ccccc3)C(=O)NCC(=O)N[C@@H](C)C(=O)N[C@@H](CC(C)C)C(=O)N[C@@H]([C@@H](C)O)C(=O)N[C@@H](Cc3c[nH]c4ccccc34)C(=O)N[C@@H](C(C)C)C(=O)N2)C(N)=O)C(=O)CCN)C(N)=O)NC(=O)[C@H](C(C)C)NC(=O)[C@H](Cc2c[nH]c3ccccc23)NC(=O)[C@H]([C@@H](C)O)NC(=O)[C@H](CC(C)C)NC(=O)[C@H](C)NC(=O)CNC(=O)[C@H](Cc2ccccc2)NC(=O)[C@H](Cc2c[nH]cn2)NC1=O)[C@@H](C)O  haematocrit (healthy BALB/c mice; subcutaneous, 0.08 mg/kg, 8 d, single dose): 42.7%
COc1nc(-c2cc(C)c(N[C@@H](C)c3cc(F)cc(F)c3)nn2)ccc1-n1cnc(C)c1  change in level (measured: Aβ38; rat Sprague-Dawley male, CSF; oral, 25 mg/kg daily for 9 days, 4 h after dose; reference: vehicle): 62%
O=S(=O)(NCCNC/C=C/c1ccc(Br)cc1)c1cccc2cnccc12  embryos reaching 8-cell (mouse zygotes; 20 µM, 48 h post-hCG): 0%
Cc1nn(-c2nc3c(F)cc(F)cc3s2)c(O)c1C(c1ccc(C(F)(F)F)cc1)c1c(C)nn(-c2nc3c(F)cc(F)cc3s2)c1O  lipase activity (mouse, cerulein-induced acute pancreatitis, serum; 25 mg/kg, 192 h): 140 mOD/min and 116 mOD/min and 88.7 mOD/min and 83.7 mOD/min and 96.1 mOD/min
O=C(OC(C(F)(F)F)C(F)(F)F)N1CCN(Cc2cccc(Oc3ccccc3)c2)CC1  tracer distribution volume (PET; rhesus monkey, cerebellum; intravenous, 0.03 mg/kg, pretreatment, added: [18F]T-401): 4.95 mL/cm3
CC[C@H](C)[C@H](NC(=O)[C@H](CCC(=O)O)NC(=O)[C@H](CO)NC(=O)[C@@H](NC(=O)[C@@H](N)CO)C(C)C)C(=O)N[C@@H](CCC(N)=O)C(=O)N[C@@H](CC(C)C)C(=O)N[C@@H](CCSC)C(=O)N[C@@H](Cc1c[nH]cn1)C(=O)N[C@@H](CC(N)=O)C(=O)N[C@@H](CC(C)C)C(=O)NCC(=O)N[C@@H](CCCCN)C(=O)N[C@@H](Cc1c[nH]cn1)C(=O)N[C@@H](CC(C)C)C(=O)N[C@@H](CC(N)=O)C(=O)N[C@@H](CO)C(=O)N[C@@H](CCSC)C(=O)N[C@@H](CCC(=O)O)C(=O)N[C@@H](CCCNC(=N)N)C(=O)N[C@H](C(=O)N[C@@H](CCC(=O)O)C(=O)N[C@@H](Cc1c[nH]c2ccccc12)C(=O)N[C@@H](CC(C)C)C(=O)N[C@@H](CCCNC(=N)N)C(=O)N[C@@H](CCCCN)C(=O)N[C@@H](CCCCN)C(=O)N[C@@H](CC(C)C)C(=O)N[C@@H](CCC(N)=O)C(=O)N[C@@H](CC(=O)O)C(=O)N[C@H](C(=O)N[C@@H](Cc1c[nH]cn1)C(=O)N[C@@H](CC(N)=O)C(=O)N[C@@H](Cc1ccccc1)C(N)=O)C(C)C)C(C)C  time to maximum blood calcium (measured: blood Ca2+; female CD1 mice; subcutaneous, 40 nmol/kg): ~1 h
C[C@@H](NC(=O)N1C(=O)[C@H](Cc2ccnc(N)c2)[C@H]1C(=O)O)C1CCCCC1  aPTT AUEC (human; iv infusion, 1.5 mg/kg/h, 24 h): 7370 h·s
N#CCC1CCN(c2nc(Nc3ccc(N4CCC(O)CC4)cc3)c3c(=O)[nH]ncc3n2)CC1  fold change from baseline (Olink multiplex, measured: CD163; human, serum; 40 mg, day 15; reference: baseline): -1.4
CN[C@@H]1COc2c(S(=O)(=O)NC(=O)Nc3c4c(cc5c3CCC5)CCC4)cnn2C1  inhibition (measured: IL-18; human participants, whole blood ex vivo; 900 mg twice daily, multiple doses, 156 h, IL-18, circulating, adjusted for, added: LPS/ATP; reference: baseline): 99%
COc1cc2nccc(Oc3ccc(NC(=O)NC4CC4)c(Cl)c3)c2cc1C(N)=O  Ang-2 tumour reduction rate constant (measured: sum of target lesion diameters; human, RR-DTC patients; tumour growth model, bootstrap median): -0.0137 /week
C[C@H]1C[C@H]2CSC(N)=N[C@@]2(c2nc(NC(=O)c3ccc(OC(F)F)cn3)cs2)CO1  percent change from baseline (measured: total Aβ; healthy adults, plasma; 15 mg once daily, day 10; reference: placebo): -48.7%
CCO[C@H]1CCN(Cc2c(OC)cc(C)c3[nH]ccc23)[C@H](c2ccc(C(=O)O)cc2)C1  PNH RBC clone size (PNH patients, blood; oral, 25 mg then 100 mg, week 4, mean absolute change; reference: baseline): 30.4%
CCN(CC)CCNC(=O)c1cc(S(C)(=O)=O)ccc1OC  time on bar (catalepsy bar test; female CD-1 mice; intraperitoneal, 200 mg/kg, 90 min after dosing): 35.8 s and 38.8 s and 12.8 s and 25.5 s and 32.1 s
COc1cc(-c2ccccc2)ncc1C(=O)Nc1ccc2c(=O)[nH]c(-c3ccc(C(C)(C)O)cc3)nc2c1  normalized enrichment score (RNA-seq GSEA, measured: FALLER_STEM_MOUSE; organoids, small intestinal, Apc Q1405X, mouse; dose not given, wild-type organoids; reference: DMSO, direction not given): -1
COc1cc2c(cc1OC)C(=O)C(CC1CCN(Cc3ccccc3)CC1)C2 (stereo not shown)  platform crossings (Morris water maze; C57BL/6J mice, vascular dementia; 10.0 and 1.0 mg/kg): increased
CC1(C)CCC(CN2CCN(c3ccc(C(=O)NS(=O)(=O)c4ccc(NCC5CCOCC5)c([N+](=O)[O-])c4)c(Oc4cnc5[nH]ccc5c4)c3)CC2)=C(c2ccc(Cl)cc2)C1  EC50 (cell kill, PI exclusion flow cytometry; nodal neoplastic cells, human; 24 h): 3.5 nM
CC(C)[C@H](C(=O)Nc1ccc(C(=O)NO)cc1)c1ccccc1  annual tumour growth rate (volumetric MRI; human, right IAC schwannoma; dose not given, on treatment, day 224): 18.1 %/year
N#Cc1ccc2c(-c3ccncc3)c(-c3ccc(F)cc3)nn2c1  log2 fold change (kinase binding, competitor, MIB/MS competition, measured: PBS2; Candida albicans cell lysate; 1 µM; reference: DMSO): 0.0176
O=C(COc1ccc(Cl)cc1)NC12CC(c3nnc([C@H]4C[C@@H](OC(F)(F)F)C4)o3)(C1)C2  ATF4 protein change (healthy human, PBMC; oral, 400 mg single dose, day 2, 24 h post-dose, median, added: sodium arsenite ex vivo; reference: baseline): -58.8%
CN(C)C(=O)c1cc2cnc(Nc3ccc(N4CCNCC4)cn3)nc2n1C1CCCC1  normalized enrichment score (RNA-seq GSEA, measured: HALLMARK_CHOLESTEROL_HOMEOSTASIS; MB002 tumour; concentration not given, in vivo; reference: vehicle, direction not given): 2
Cc1n[nH]c2ccc(-c3cc(OC[C@@H](N)Cc4ccccc4)cnc3-c3ccoc3)cc12  log2 fold change (kinase binding, competitor, MIB/MS competition, measured: RIM8; Candida albicans cell lysate; 1 µM; reference: DMSO): -0.122
C[C@@H](O)CCOC(=O)C[C@@H](C)O  metabolite level (measured: Leu/Ile; human, plasma; 60 min, log2-transformed values): 7.19 ± 0.28 µmol/L
Cc1cc(Nc2ccc(S(F)(F)(F)(F)F)cc2)n2nc(C(C)(F)F)nc2n1  DHO concentration (measured: dihydroorotate; female CD-1 mice, pooled urine; oral, 300 mg/kg daily, 8-24 h after dose 1): 5.22 ± 0.764 µM
O=C1Nc2cc3[nH]nc(-c4ccncc4)c3cc2CN1Cc1ccccc1  complete response, best response (RECIST v1.1; human, relapsed or refractory advanced solid tumours; intravenous, 3.6 mg/kg, pooled schedules): 0%
COc1ccccc1[C@H](Cn1c(=O)n(C(C)(C)C(=O)O)c(=O)c2c(C)c(-c3ncco3)sc21)OC1CCOCC1  fractional hepatic DNL ([1-13C]acetate infusion, isotopomer analysis; overweight or obese healthy men, plasma VLDL-TG palmitate; oral, 20 mg single dose, 5 h post-dose, added: oral fructose): 9.09 % new palmitate
c1ccc(-c2n[nH]cc2-c2ccnc3ccccc23)nc1  log2 fold change (kinase binding, competitor, MIB/MS competition, measured: CMK2; Candida albicans cell lysate; 1 µM; reference: DMSO): 0.199
C[C@@H]1CCN(C(=O)CC#N)C[C@@H]1N(C)c1ncnc2[nH]ccc12  disease activity index (mice, DSS-induced colitis; 10 mg/kg): 0
COc1nnc2ccc(N3CCC(c4ccc(OCCN5CCN(C)C(=O)[C@H]5C)cc4)CC3)nn12  time HEXIM1 above threshold (mice; 0.075 mg/kg): 6.8 h
COc1ccc(-c2cncc(N[C@@H](C)c3cccc(NC(=O)c4cncc(C)c4)c3)n2)cc1OC  fold change (measured: rno-miR-154-5p; rat SU5416/hypoxia model, lung; dose not given; reference: SU5416/hypoxia vehicle): 2.98
Cc1ncsc1-c1ccc(CNC(=O)[C@@H]2C[C@@H](O)CN2C(=O)[C@@H](NC(=O)C2(C#N)CC2)C(C)(C)C)cc1  HIF-1α level (immunostaining; Mus musculus, meninges around middle cerebral artery; dose not given, added: urotensin II in aCSF): 50.2 MFI
O=C1N[C@H](c2cncc(C#Cc3ccccc3)c2)[C@@H](c2ccccc2Cl)O1  C1q level (immunoblot; dKI mice, total homogenate; dose not given): no effect
NCC(=O)Nc1cncc(-c2nn3c(=O)cc(N4CCNCC4)nc3s2)c1  inhibition (ADP-induced platelet aggregation, light transmission aggregometry; human, stable CAD on aspirin, ex vivo platelets; subcutaneous, 0.04 mg/kg, 60 min post-dose, mean value, added: ADP 20 µM): 28.6%
CC(C)NCC(O)c1ccc(O)c(O)c1 (stereo not shown)  sarcomere length (ventricular cardiomyocytes, C57BL/6 mouse; dose not given, 0.556 s): 1.51 µm
OC(CCN1CCCCC1)(c1ccccc1)C1CC2C=CC1C2 (stereo not shown)  change, Theta power, EEG Pz-O2 (resting-state EEG; healthy elderly humans; oral, 2 mg, eyes open, LS mean; reference: baseline): 11.8%
N#Cc1ccc2c(c1)[C@H]1CCCN(C(=O)c3ccc4[nH]cnc4c3)[C@H]1C2  change from baseline (measured: LDL; human; 20 mg once daily, day 28, adjusted mean): -2.04 mg/dL
Cn1cc(Nc2nccc(-c3ccc4c(c3)CN(C3COC3)CC[C@H]4NC(=O)c3cn(C(C)(C)C)nn3)n2)cn1  pathway activation z-score (measured: non-small cell lung cancer; splenic B cells, mice; 30 mg/kg, IgD-activated in vivo; reference: vehicle, direction not given): 2.11
CN(C(=O)n1cnc(-c2ccc[n+]([O-])c2)c1)C1CCCCC1  AUC(0-t) (measured: LEA; human, plasma; 40 mg single dose): 330 ng·h/mL
O=C(O)CNC(=O)Cc1ccccc1  sarcomere length (ventricular cardiomyocytes, C57BL/6 mouse; dose not given, 0.144 s): 1.67 µm
N#Cc1ccn2c(-c3ccncc3)c(-c3ccc(F)cc3)nc2c1  log2 fold change (kinase binding, competitor, MIB/MS competition, measured: CMK2; Candida albicans cell lysate; 100 nM; reference: DMSO): -0.764
NC(=O)c1cnc2[nH]ccc2c1N[C@@H]1[C@@H]2CC3C[C@H]1C[C@@](O)(C3)C2  CD4+ memory T-cell change (flow cytometry; Japanese healthy men, blood; oral, 100 mg twice daily, 72 h after day 7 dose; reference: baseline): -0.57%
Cc1c(C)n(Cc2cccc(OC(C)(C)C(=O)O)c2)c2ccc(C(=O)N[C@@H](C)c3ccc(C(C)(C)C)cc3)cc12  VO2 (indirect calorimetry; mice, diet-induced obese; dose not given, end of treatment): 92.5 ± 9.05 mL/min/kg
C[C@H](Oc1ccc(Br)cc1-c1ccon1)C(=O)O  difference from placebo (mean CMAP amplitude; human, tibialis anterior muscle; 200 mg, SAD): 0.043 mV

For quick reference, copied from above:
O=C1N[C@H](c2cncc(C#Cc3ccccc3)c2)[C@@H](c2ccccc2Cl)O1  C1q level (immunoblot; dKI mice, total homogenate; dose not given): no effect
O=C(OC(C(F)(F)F)C(F)(F)F)N1CCN(Cc2cccc(Oc3ccccc3)c2)CC1  tracer distribution volume (PET; rhesus monkey, cerebellum; intravenous, 0.03 mg/kg, pretreatment, added: [18F]T-401): 4.95 mL/cm3
COc1nc(-c2cc(C)c(N[C@@H](C)c3cc(F)cc(F)c3)nn2)ccc1-n1cnc(C)c1  change in level (measured: Aβ38; rat Sprague-Dawley male, CSF; oral, 25 mg/kg daily for 9 days, 4 h after dose; reference: vehicle): 62%
CO[C@H]1CC[C@H](N2C(=O)CNc3ncc(-c4ccc(C(C)(C)O)nc4)nc32)CC1  p4EBP1 change from baseline (flow cytometry; stimulated T cells, human, blood; 45 mg single dose, 1.5 h, median; reference: baseline): -56.6%
Cc1n[nH]c2ccc(-c3cc(OC[C@@H](N)Cc4ccccc4)cnc3-c3ccoc3)cc12  log2 fold change (kinase binding, competitor, MIB/MS competition, measured: RIM8; Candida albicans cell lysate; 1 µM; reference: DMSO): -0.122
